Values quoted from earlier work that unrelated publications cite.
Compare with care: the assays were run in different laboratories. “And” joins repeats or separate records; there may be more than shown. Numbers after ± are the reported error. ≈ marks a conversion by molar mass, not a printed value.
UniProt Q15858, sequence (whole entry, looked up): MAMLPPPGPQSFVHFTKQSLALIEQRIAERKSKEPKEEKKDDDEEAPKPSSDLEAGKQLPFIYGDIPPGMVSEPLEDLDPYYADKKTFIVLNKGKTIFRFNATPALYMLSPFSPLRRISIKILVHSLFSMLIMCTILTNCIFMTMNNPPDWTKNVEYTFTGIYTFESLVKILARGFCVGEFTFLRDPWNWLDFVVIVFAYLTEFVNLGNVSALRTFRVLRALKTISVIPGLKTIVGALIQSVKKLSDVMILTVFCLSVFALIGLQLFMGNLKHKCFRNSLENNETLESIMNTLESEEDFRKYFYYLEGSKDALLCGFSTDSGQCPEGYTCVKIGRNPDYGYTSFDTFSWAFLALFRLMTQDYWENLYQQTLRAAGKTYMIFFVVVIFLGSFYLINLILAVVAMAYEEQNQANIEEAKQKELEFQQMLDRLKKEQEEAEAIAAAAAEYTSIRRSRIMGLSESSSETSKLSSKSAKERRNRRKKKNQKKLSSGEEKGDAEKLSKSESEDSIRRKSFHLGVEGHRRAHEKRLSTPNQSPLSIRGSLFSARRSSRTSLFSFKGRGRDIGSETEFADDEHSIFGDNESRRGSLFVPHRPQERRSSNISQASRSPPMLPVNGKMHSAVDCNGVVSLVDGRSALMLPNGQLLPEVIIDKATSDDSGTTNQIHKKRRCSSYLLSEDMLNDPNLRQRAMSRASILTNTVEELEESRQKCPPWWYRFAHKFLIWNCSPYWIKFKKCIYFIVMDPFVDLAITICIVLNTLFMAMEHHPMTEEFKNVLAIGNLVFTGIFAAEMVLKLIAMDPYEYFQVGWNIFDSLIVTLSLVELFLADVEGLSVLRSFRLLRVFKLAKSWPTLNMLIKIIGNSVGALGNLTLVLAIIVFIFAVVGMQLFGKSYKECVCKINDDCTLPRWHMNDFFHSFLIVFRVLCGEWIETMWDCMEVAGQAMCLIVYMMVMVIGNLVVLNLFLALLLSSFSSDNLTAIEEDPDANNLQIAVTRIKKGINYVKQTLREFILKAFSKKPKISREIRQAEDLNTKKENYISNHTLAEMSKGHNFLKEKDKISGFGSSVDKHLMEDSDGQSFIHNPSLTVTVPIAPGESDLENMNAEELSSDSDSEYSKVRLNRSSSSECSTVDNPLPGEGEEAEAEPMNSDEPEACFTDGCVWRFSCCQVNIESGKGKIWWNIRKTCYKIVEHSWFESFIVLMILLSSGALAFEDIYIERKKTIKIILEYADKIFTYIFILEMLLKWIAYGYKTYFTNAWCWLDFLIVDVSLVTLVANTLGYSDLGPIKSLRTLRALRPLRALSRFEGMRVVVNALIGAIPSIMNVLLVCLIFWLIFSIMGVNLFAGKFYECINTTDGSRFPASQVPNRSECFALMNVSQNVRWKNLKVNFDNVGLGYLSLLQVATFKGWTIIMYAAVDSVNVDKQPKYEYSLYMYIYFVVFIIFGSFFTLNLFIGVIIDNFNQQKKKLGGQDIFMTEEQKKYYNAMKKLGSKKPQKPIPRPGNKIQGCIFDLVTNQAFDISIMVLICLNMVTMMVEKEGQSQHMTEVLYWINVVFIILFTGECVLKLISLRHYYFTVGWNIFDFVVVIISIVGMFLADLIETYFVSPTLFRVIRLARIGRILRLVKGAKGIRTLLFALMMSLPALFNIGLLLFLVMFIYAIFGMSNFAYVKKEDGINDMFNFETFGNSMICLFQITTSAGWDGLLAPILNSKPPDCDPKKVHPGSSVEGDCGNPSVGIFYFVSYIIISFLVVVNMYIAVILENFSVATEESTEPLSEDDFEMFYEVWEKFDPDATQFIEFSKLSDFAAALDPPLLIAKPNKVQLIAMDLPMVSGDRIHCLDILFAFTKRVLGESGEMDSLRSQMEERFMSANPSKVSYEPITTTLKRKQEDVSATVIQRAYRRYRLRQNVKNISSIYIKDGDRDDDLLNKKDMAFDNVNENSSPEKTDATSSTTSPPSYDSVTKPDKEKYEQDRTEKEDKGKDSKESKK

`O=C(O)CN1CCOCCN(CC(=O)O)Cc2cccc(n2)C1` — result for “sum of log KiH”: 17.5 (0.15 M NaCl).
`CC(=O)N1CCN(C(=O)c2ccc(Nc3nccc(-c4ccc(Cl)cc4)n3)cc2)CC1` has a half-life of 2 to 3 h (mouse).
`CC1(N(CC(=O)O)CC(=O)O)CN(CC(=O)O)CCN(CC(=O)O)C1` — result for “protonation constant (log)”: 6.5 (pH-potentiometry, measured: logK2H; 0.15 M NaCl; 25 °C).
`O=C(O)CN1CCN(CC(=O)O)CCN(CC(=O)O)CC1`: “sum of log KiH” 24.1 (protonation constants; 0.1 M Me4NCl).
Under “fluorescence quantum yield”, `CN1CCN(c2ccc3[nH]c(-c4ccc5[nH]c(-c6ccc(OCCCCNC(=O)c7ccc8c(c7)C(=O)OC87c8ccc(N(C)C)cc8[Si](C)(C)c8cc(N(C)C)ccc87)cc6)nc5c4)nc3c2)CC1` is recorded as 0.007 ± 0.001 (PBS).
`[Cu+2].c1cc2nc(c1)CNCCNCCNC2` — result for “peak separation ΔE”: 93 mV (cyclic voltammetry; DMF; scan rate 100 mV/s).
With `COc1ccc2c(c1)CN(C(=O)CCN1CCC(Cc3ccccc3)CC1)CCS2` the plasma concentration was 750 ng/mL (dog sterile pericarditis AF model; dose not given).
`Cc1ccc2c(c1)nc(CCN1C(=O)c3cccc4cccc(c34)C1=O)n2-c1ccncc1` has an AUC(0-t) of 55 ng·h/mL (Sprague-Dawley rat; oral, 10 mg/kg).
`C/C(N)=N/C(=N\S(=O)(=O)c1ccc(C(F)(F)F)cc1)N1C[C@H](c2ccccc2)C(c2ccc(Cl)cc2)=N1`: “brain to plasma ratio” 49% (MDR1 knockout mouse).
With `O=C(N1CCC(C(c2ccc3c(c2)OCO3)c2ccc3c(c2)OCO3)CC1)n1cncn1` [carbon-11 labelled] the logD was 3.32.
`Cc1ncsc1-c1ccc(CNC(=O)[C@@H]2C[C@@H](O)CN2C(=O)[C@@H](NC(=O)COCCOCCOCCNC(=O)C[C@@H]2N=C(c3ccc(Cl)cc3)c3c(sc(C)c3C)-n3c(C)nnc32)C(C)(C)C)cc1` has a terminal half-life of 1.04 h (mouse; intravenous, 5 mg/kg).
With `Clc1cc2nc(c1)CNCCNCCNC2.[Cu+2]` the half-wave potential was -929 mV (cyclic voltammetry; DMF; scan rate 100 mV/s; relative to: Fc/Fc+).
`CN1CCN(c2ccc3[nH]c(-c4ccc5[nH]c(-c6ccc(OCCCCNC(=O)c7ccc8c(c7)C(=O)OC87c8ccc(N(C)C)cc8C(C)(C)c8cc(N(C)C)ccc87)cc6)nc5c4)nc3c2)CC1`: “fluorescence quantum yield” 0.576 ± 0.004 (PBS with 0.1% SDS).
The Tmax of `CC[C@H](C)[C@H](NC(=O)[C@H](Cc1ccc(O)cc1)NC(=O)[C@@H](NC(=O)[C@H](CCCNC(=N)N)NC(=O)[C@@H](N)CC(=O)O)C(C)C)C(=O)N[C@@H](Cc1c[nH]cn1)C(=O)N1CCC[C@H]1C(=O)O` is reported as ~1 h (ELISA; patients with advanced cancer, plasma; dose not given).
With `O=C1NC(=O)/C(=C/c2ccc3ncnc(N4CCC(F)CC4)c3n2)S1` the half-life was 3 h (mouse).
`N=C(NCCCCNc1nc(N)nc(N)n1)c1ccc(C(=N)NCCCCNc2nc(N)nc(N)n2)cc1`: “maximum non-toxic dose” 50 to 100 mg/kg (mouse).
For `COC1=CC(c2ccc[nH]2)=NC1=CNC12CC3CC(CC(C3)C1)C2.Cl`, the half-life was > 1 h (metabolic stability; human liver microsomes).
For `Oc1c(C(c2ccccc2)c2c[nH]c3ccccc23)cc(Cl)c2cccnc12` (centres unmarked), the IC50 was 2.72 µM (COLO 320 ABCB1-overexpressing; cell viability).
The intrinsic clearance of `Cc1cc(-c2ccc(C#N)cc2)cc(C)c1Oc1ccnc(Nc2ccc(C#N)cc2)n1` is reported as 47.4 µL/min/mg (human liver microsomes).
For `FC(F)(F)c1cc2nc(c1)CNCCNCCNC2.[Cu+2]`, “cathodic peak potential” read -1000 mV (cyclic voltammetry; DMF; scan rate 100 mV/s; relative to: Fc/Fc+).
`CC(C)OC(=O)c1ccc(O)cc1` gave a logD of 2.77 (pH 7.4).
`COc1ccc2c(c1)O[B-]1(c3ccccc3)OC(=O)C(c3ccccc3)=N[N+]1=C2C` (centres unmarked) has a hydrolysis half-life of 0.3 h (buffer with 1.5% acetonitrile; concentration not given, pH 7).
`c1ccc2cc3c(ccc4ccccc43)cc2c1` has a log Kow of 5.6 (experimental mean or OPERA estimate).
`CNc1nc(N)nc2c1ncn2[C@@H]1O[C@H](CO[P@](=O)(O)N[C@@H](C)C(=O)O)[C@@H](O)[C@@]1(C)F` gave a plasma half-life of ~3 h (plasma).
`COC1=CC(c2ccc[nH]2)=NC1=CNC1CCCCCC1.Cl` has a half-life of 0.868 h (metabolic stability; human liver microsomes).
`Ic1cc2nc(c1)CNCCNCCNC2.[Cu+2]`: “peak separation ΔE” 96 mV (cyclic voltammetry; DMF; scan rate 100 mV/s).
Under “fluorescence quantum yield”, `CN1CCN(c2ccc3[nH]c(-c4ccc5[nH]c(-c6ccc(OCCCCNC(=O)c7ccc8c(c7)C7(OC8=O)c8ccc(N(C)C)cc8[Si](C)(C)c8cc(N(C)C)ccc87)cc6)nc5c4)nc3c2)CC1` is recorded as 0.003 ± 0.002 (PBS).
For `Oc1c(Cc2c[nH]c3ccccc23)cc(Cl)c2cccnc12`, the IC50 was 4.97 µM and 4.91 µM and 4.74 µM (COLO 320 ABCB1-resistant colon; cytotoxicity).
With `O=C(Oc1ccccc1)c1ccc(O)cc1` the logD was 3.26 (pH 7.4).
`O=c1ccc(OCCCN2CCCCC2)nn1-c1ccc(Cl)c(Cl)c1` has an inhibition of 24.6 ± 1.2% (Sodium channel protein type 9 subunit alpha (SCN9A, Homo sapiens, UniProt Q15858); 1.0 µM).
The half-life of `O=C([O-])CN(CC(=O)[O-])C1CCCCC1N(CC(=O)[O-])CC(=O)[O-].[Mn+2]` (centres unmarked) is reported as 0.183 h (transmetallation, together with: Zn(II) 25 mM).
`CC[C@H](C)[C@H](NC(=O)[C@H](Cc1ccccc1)NC(=O)[C@H](CCC(=O)O)NC(=O)[C@H](CCCCN)NC(=O)[C@H](C)NC(=O)[C@H](C)NC(=O)[C@H](CCC(N)=O)NC(=O)CNC(=O)[C@H](CCC(=O)O)NC(=O)[C@H](CC(C)C)NC(=O)[C@H](Cc1ccc(O)cc1)NC(=O)[C@H](CO)NC(=O)[C@H](CO)NC(=O)[C@@H](NC(=O)[C@H](CC(=O)O)NC(=O)[C@H](CO)NC(=O)[C@@H](NC(=O)[C@H](Cc1ccccc1)NC(=O)[C@@H](NC(=O)CNC(=O)[C@@H](N)CCC(=O)O)[C@@H](C)O)[C@@H](C)O)C(C)C)C(=O)N[C@@H](C)C(=O)N[C@@H](Cc1c[nH]c2ccccc12)C(=O)N[C@@H](CC(C)C)C(=O)N[C@H](C(=O)N[C@@H](CCCCN)C(=O)NCC(=O)N[C@@H](CCCNC(=N)N)C(N)=O)C(C)C` — result for “fraction of circulating GLP-1”: ~60% (measured: GLP-1 metabolite; plasma).
The log KH3 of `O=C(O)CN1CCNCCNCCN(CC(=O)O)CC1` is reported as 3.74 (0.1 M KCl).
`CN1CCN(c2ccc3[nH]c(-c4ccc5[nH]c(-c6ccc(OCCCCNC(=O)c7ccc8c(c7)C7(OC8=O)c8ccc(N(C)C)cc8C(C)(C)c8cc(N(C)C)ccc87)cc6)nc5c4)nc3c2)CC1` — result for “fluorescence quantum yield”: 0.614 ± 0.002 (PBS with 0.1% SDS).
`CCn1c(=O)c(-c2cc(NC(=O)Nc3ccccc3)c(F)cc2Br)cc2cnc(N)cc21`: “median trough concentration” 655 ng/mL (Chinese patients; dose not given).
Under “singlet oxygen quantum yield”, `Oc1cccc(-c2cccc(O)n2)n1.[Cl-].[Cl-].[Ru+2].c1cnc2c(c1)ccc1cccnc12.c1cnc2c(c1)ccc1cccnc12` is recorded as 0.048 (CD3OD; acidic form).
For `COc1ccc(Nc2nc(Nc3ccc(OCC[18F])cc3)ncc2Br)cc1`, “tumour to tissue ratio” read 0.78 (S180 tumour-bearing mice; intravenous, 60 min; relative to: tumour over bone).
For `COc1cc2nc(c1)CNCCNCCNC2.[Cu+2]`, “cathodic peak potential” read -1070 mV (cyclic voltammetry; DMF; scan rate 100 mV/s; relative to: Fc/Fc+).
For `NCc1ccc(Cl)cc1`, the pKa was 9.1 (amine, free unbound form).
For `Cc1sc(-c2ccc(C(F)(F)F)cc2)nc1-c1nn[nH]c1C#N`, “HbA1c at end of treatment” read 8.44 ± 0.18% (ZDF rat; 10 mg/kg/day, 6 weeks).
With `CC(C)COC(=O)c1ccc(O)cc1` the logP was 3.2 (octanol-water).
`COc1cccc2c1C(=O)c1c(O)c3c(c(O)c1C2=O)C[C@@](O)(C(=O)CO)C[C@@H]3O[C@H]1C[C@H](N)[C@H](O)[C@H](C)O1` gave a water solubility of 243 µg/mL (≈ 447 µM).
The logD of `CCC(C)OC(=O)c1ccc(O)cc1` (centres unmarked) is reported as 2.9 (pH 7.4).
`O=C(O)CCCCC1(N(CC(=O)O)CC(=O)O)CN(CC(=O)O)CCN(CC(=O)O)C1`: “protonation constant (log)” 2.6 (pH-potentiometry, measured: logK5H; 0.15 M NaCl; 25 °C).
